Results collected from several papers.
Numbered parts are unrelated; each lists some results of a single study. Changes are numbered by the printed parent chain.

Sample 1 — technique: RNA Bind-n-Seq; molecule type: RNA; medium: in vitro; concentration: 200 nM; setting: whole 134-nt RNA, ends assumed; added: 150 mM LiCl; reference: input library; reading: higher = stronger binding; library: 7-deaza-guanosine replaces G
Target: Fragile X messenger ribonucleoprotein 1, C-terminal low-complexity region (Fmr1, Mus musculus, UniProt P35922)
Shared flanks, not repeated: GGGAGUUCUACAGUCCGACGAUC … UGGAAUUCUCGGGUGUCAAGG
Oligonucleotide | log2 enrichment
UCAAGUCCUGUGCUACACAUCGUAUGUACCGAAUCGGGGUUGGGUUGGGUUGGGAAAGUAUUAUGUUACGCCGUUCGGAUCUGCACUUCC | -0.582
GCAGGAAGUAAAAACAAAUGGAAAUGCUUCGGAUAGUGGCAGGGGUGGGGGUUGCUAAGGAAAGGGUGGGAUGGGAGUGGGCAAAGAGUU | 1.33
UUCCUCAAGUCCUGUGCUACACAUCGUAUGUACCGAAUCGGAGGUGGUGGAAAGUAUUAUGUUACGCCGUUCGGAUCUGCACUUCCAGCA | -1.63
GUCCUGUGCUACACAUCGUAUGUACCGAAUCGGGGAAAGGGGUUUUUGGGGUUUGGGGAAAGUAUUAUGUUACGCCGUUCGGAUCUGCAC | -1.54
UCAAGUCCUGUGCUACACAUCGUAUGUACCGAAUCGGGUUGGGGUUGGGGUUGGGAAAGUAUUAUGUUACGCCGUUCGGAUCUGCACUUC | -1.13
AAGUCCUGUGCUACACAUCGUAUGUACCGAAUCGGGGUUUUGGUUUUGGUUUUGGGAAAGUAUUAUGUUACGCCGUUCGGAUCUGCACUU | -2.42
CACAGACAACACGCACCCACACAGACACAGAGGGAAGGGGUUGGGAUGGGGACAGGGUGCACAGCAGGGCGGGGUAGGAGCCCAGCCCCU | 1.18

Sample 2 — target: CCNA1, cyclin fold, Cln2 fusion (human); technique: yeast growth competition, sequencing; medium: yeast; setting: weak parent motif; reference: not given; reading: higher = stronger binding
Parent: SCAPER docking peptide (human); SNARRSLNFGGST
Substitution | normalised enrichment score
SNNRRSLNFGGST [A3N] | 0.709
ANARRSLNFGGST [S1A] | 0.813
SNARRSLNFGGSQ [T13Q] | 0.494
SNARRFLNFGGST [S6F] | 0.76
SNARWSLNFGGST [R5W] | 0.115
SIARRSLNFGGST [N2I] | 0.437
SNARRSLIFGGST [N8I] | 0.755

Sample 3 — technique: protein-binding microarray; molecule type: double-stranded DNA, one strand shown; medium: in vitro; concentration: 940 nM top; setting: 60-bp whole probe; added: salmon DNA 0.4 mg/ml; reference: random background probes; reading: higher = stronger binding; shared flanks, not repeated: GCCTAGCAC … GTCTTGATTCGCTTGACGCTGCTG
Target: Interferon regulatory factor 5, full length, phosphomimetic (IRF5, Homo sapiens, UniProt Q13568-2, residues 1-514, S451D/S453D/S456D/S462D)
Oligonucleotide | fitted relative affinity
TCAGGTATCGGACTGGGTTAGTGCTAG | 2.49 z-score
GACGGTATCGGTATCGCGACGTGCTAG | 8.58 z-score
GACGGTCTCTTTTTCCTGACGTGCTAG | 1.03 z-score
CATTTTCTTTAACTCATTCTGTGCTAG | 1.33 z-score
TTGGAACTGGGGACTGGATTAGTGCTA | -0.332 z-score
ATGTAATTCCTGCCTGAGCTCGTGCTA | 0.019 z-score
GACGGTTTCGACACTGGGGACGTGCTA | 7.34 z-score

Further values, each from its own experiment
Molecule | target | assay | system | setting | how to read | endpoint | result
PhoQ, residues 284 288 289 292 302 303 SLKLQV | PhoP, residues 12 14 15 18 19 TPLRH (Escherichia coli, UniProt P23836) | Sort-seq, item: YFP reporter | E. coli | PhoQ-PhoP variant library, added: 10 µM Mg2+ | reference: high Mg2+ state, higher = stronger signaling | fold induction | 5.05

For quick reference, copied from above (sample 3):
Oligonucleotide | fitted relative affinity
ATGTAATTCCTGCCTGAGCTCGTGCTA | 0.019 z-score
GACGGTTTCGACACTGGGGACGTGCTA | 7.34 z-score
